Measured values pooled from the literature.
Lines come from different studies, so protocols differ. Values joined by “and” are separate records of one study, mostly repeats; a detail may differ. ± marks the error that the study gave.

With `CCc1c2c(nc3ccc(OC4OC(C(=O)O)C(O)C(O)C4O)cc13)-c1cc3c(c(=O)n1C2)COC(=O)C3(O)CC` (stereo not drawn) the Cmax was 45 ng/mL (human patients, plasma; intravenous, 75 mg/m^2 of parent drug).
With `COC(=O)C[C@H](NC(=O)[C@H](C)NC(=O)[C@@H](NC(=O)[C@H](CC(=O)OC)NC(=O)[C@@H](NC(=O)c1ccc2ccccc2n1)C(C)C)C(C)C)C(=O)COc1c(F)cccc1F` the fractional shortening was 50 ± 2.11% (echography; rat pups; 1 mg/kg, 1 h).
`COC(=O)C[C@](O)(CCCC(C)(C)OC(C)=O)C(=O)O[C@@H]1C(OC)=C[C@]23CCCN2CCc2cc4c(cc2[C@H]13)OCO4` — result for tissue concentration: “not detected” (CD1 mouse, lung; oral, 1 mg/kg, 8 h, below quantification limit 1.00 ng/mL).
For `CC(C)[C@H](NC(=O)CNC(=O)[C@H](CCC(N)=O)NC(=O)[C@H](C)N)C(=O)O`, “unrelated adverse events” read 16.7% (human; single dose, 30 mg/kg, unlikely related or unrelated).
`[11CH3]n1c(=O)n(CCCO)c(=O)c2c1nc(Oc1cccc(OC(F)(F)F)c1)n2Cc1ccc(Cl)cc1` has a tracer uptake of 0.82 ± 0.16 %ID/g (ex vivo biodistribution; Sprague Dawley rat, kidney; 60 min post injection).
Under toxicity, `CC[C@H](C)[C@H](NC(=O)[C@H](CO)NC(=O)[C@H](CCCCN)NC(=O)[C@@H](NC(=O)[C@@H](NC(=O)[C@H](CC(=O)O)NC(=O)[C@H](CCC(=O)O)NC(=O)[C@@H](NC(=O)[C@H](CO)NC(=O)[C@@H](N)CCCNC(=N)N)[C@@H](C)O)[C@@H](C)CC)[C@@H](C)CC)C(=O)N[C@@H](CO)C(=O)NCC(=O)NCC(=O)NCC(=O)N[C@@H](Cc1ccccc1)C(=O)N[C@@H](CC(C)C)C(=O)N[C@@H](CC(N)=O)C(=O)N[C@@H](C)C(=O)N[C@@H](CCSC)C(=O)N[C@@H](CC(N)=O)C(=O)N[C@@H](C)C(N)=O` is recorded as “not toxic” (zebrafish embryos; 1, 5, 25 µM, 4, 28, 52 hpf).
For `NC(=S)N/N=C/c1ccc(OCc2ccccc2)cc1`, the Papp was 4.03 ×10⁻⁶ cm/s (PAMPA-BBB; pH 7.4).
For `C[C@H](O)[C@@H](NC(=O)[C@H]1CCCN1C(=O)[C@@H](CCCCN)NC(=O)[C@@H](CO)NC(=O)[C@@H](Cc1ccc(O)cc1)NC(=O)[C@@H](CC(N)=O)NC(=O)CCOCCOCCOCCNC(=O)CN1CCN(CC(=O)O)CCN(CC(=O)O)CCN(CC(=O)O)CC1)C(=O)N[C@H](CC(=O)O)C(=O)N[C@H](CCCNC(=N)N)C(=O)N[C@H](CCC(N)=O)C(=O)N[C@H](Cc1ccc(O)cc1)C(=O)N[C@H](Cc1c[nH]cn1)C(=O)N[C@H](Cc1ccccc1)C(N)=O` [copper-64 labelled], “time to distribution and elimination” read ≤ 20 min (quantitative PET; C57BL/6J mice, heart, liver and kidney; intravenous).
For `[2H]C([2H])([2H])C([2H])([2H])C([2H])([2H])OC(C(=O)OC1CCNCC1)(c1ccccc1)c1ccccc1`, the adverse events was 14.3% (refers to: diarrhea; healthy Japanese male; oral, 10 mg, 16 days, multiple ascending dose).
For `CCCCCCC[C@@H](CC(=O)O)OC(=O)C[C@@H](CCCCCCC)O[C@@H]1O[C@@H](C)[C@H](O)[C@@H](O)[C@H]1O`, the mortality was 100% (zebrafish embryos; 640 µM, 6 to 120 hpf).
`COc1cc(NC(=O)C(=O)c2c(C)n(Cc3ccc(Cl)cc3)c3ccc(C)cc23)ccn1` has an oral bioavailability of 19.3% and 15.3% and 13.7% and 23.6% and 31.1% and 21.8% (cynomolgus monkey, female, plasma; oral, 10 mg/kg).
With `CC(C)C(=O)OC1O[C@@H]2O[C@@]3(C)CC[C@H]4[C@H](C)CCC([C@H]1C)[C@@]24OO3` (stereo partly drawn) the dead embryos was 5 count (Tg(fli1:EGFP) zebrafish embryos; 1.0 µg/mL, up to 48 hpf).
`CC(C)C[C@H](NC(=O)[C@H](CCCCN)NC(=O)[C@H](CCC(=O)O)NC(=O)[C@H](C)NC(=O)[C@@H](NC(=O)[C@H](CCCCN)NC(=O)[C@H](CC(=O)O)NC(=O)[C@H](Cc1ccc(O)cc1)NC(=O)[C@H](Cc1ccccc1)NC(=O)[C@H](C)NC(=O)[C@H](CCCCN)NC(=O)[C@H](CC(C)C)NC(=O)[C@H](Cc1c[nH]c2ccccc12)NC(=O)[C@@H](N)CC(=O)O)C(C)C)C(=O)N[C@@H](CCCCN)C(=O)N[C@@H](CCC(=O)O)C(=O)N[C@@H](C)C(=O)N[C@@H](Cc1ccccc1)C(=O)N1CCC[C@H]1C(=O)N[C@@H](CC(=O)O)C(=O)N[C@@H](Cc1c[nH]c2ccccc12)C(=O)N[C@@H](C)C(=O)N[C@@H](CCCCN)C(=O)N[C@@H](C)C(=O)N[C@@H](C)C(=O)N[C@@H](Cc1ccc(O)cc1)C(=O)N[C@@H](CC(=O)O)C(=O)N[C@@H](CCCCN)C(=O)N[C@@H](C)C(=O)N[C@@H](C)C(=O)N[C@@H](CCC(=O)O)C(=O)N[C@@H](CCCCN)C(=O)N[C@@H](C)C(=O)N[C@@H](CCCCN)C(=O)N[C@@H](CCC(=O)O)C(=O)N[C@@H](C)C(=O)N[C@@H](C)C(=O)O` has a Tmax of 0 h (cynomolgus monkey male, plasma; intravenous infusion, 25 mg/kg, day 1, 30 min infusion).
`C#Cc1c(F)ccc2cc(O)cc(-c3ncc4c(N5CC6CCC(C5)N6C(=O)OCCCCC)nc(OC[C@@]56CCCN5C[C@H](F)C6)nc4c3F)c12`: “parent drug release” “not detected” (mouse liver microsomes; 60 min, with: NADPH).
`[Cl-].[Cl][Ru-4]123([n+]4ccccc4-c4cccc([n+]41)-c1cccc[n+]12)[n+]1ccc(-c2ccccc2)c2ccc4c(-c5ccccc5)cc[n+]3c4c21`: toxicity “not toxic” (zebrafish embryos; 20 µM).
`CSCC[C@@H]1NC(=O)[C@@H]2CSSC[C@H](NC(=O)[C@H](CO)NC(=O)[C@H](C)N)C(=O)N[C@@H](CCCNC(=N)N)C(=O)N[C@@H]([C@@H](C)O)C(=O)N3CCC[C@H]3C(=O)N[C@@H](CCCCN)C(=O)N[C@@H](CC(=O)O)C(=O)N[C@H]3CSSC[C@H](NC(=O)[C@H](CCCCN)NC(=O)[C@H](CCCNC(=N)N)NC(=O)[C@H](CC(N)=O)NC1=O)C(=O)N[C@@H](CCCCN)C(=O)N[C@H]1CSSC[C@H](NC(=O)[C@@H]4CCCN4C(=O)[C@H](CC(=O)O)NC(=O)[C@H](C)NC3=O)C(=O)N[C@@H](C)C(=O)N[C@@H](CCCCN)C(=O)N[C@@H](CCC(=O)O)C(=O)N[C@@H]([C@@H](C)O)C(=O)NCC(=O)N[C@@H](CSSC[C@@H](C(N)=O)NC(=O)[C@H](CCCNC(=N)N)NC(=O)[C@H](CC(N)=O)NC1=O)C(=O)N1CCC[C@H]1C(=O)N[C@@H](Cc1ccc(O)cc1)C(=O)NCC(=O)N[C@@H](CCCCN)C(=O)N2` has a Potassium of 4.76 mmol/L (DA rat pristane-induced arthritis, serum; subcutaneous, 0.1 mg/kg single dose at onset, 21 days).
`C[C@H]1C(=O)O[C@@H]2O[C@@]3(C)CC[C@@H]4[C@@]2(OO3)[C@H]1CC[C@]4(C)O` has a free AUC(0-t) of 0.628 ± 0.218 µM·h (healthy Chinese human; oral, dose not given, day 2).
`CC[C@H](C)C(=O)N1CCC(NC(=O)Nc2ccc(OC(F)(F)F)c(F)c2)CC1` — result for “subjects with laryngitis TEAE”: 0% (healthy volunteers; oral, 2 mg single dose).
`NS(=O)(=O)c1ccc(N2N=C(C(F)(F)F)CC2c2ccc(F)cc2F)cc1` (stereo not drawn) gave an NOAEL of 1 mg/kg/day (general toxicity; beagle dog; oral, multiple doses, once daily).
`CC[C@H](C)[C@H](NC(=O)CN)C(=O)N[C@@H](CC(C)C)C(=O)N[C@@H](CCCCN)C(=O)N[C@@H](Cc1ccccc1)C(=O)N[C@@H](CC(C)C)C(=O)N[C@@H](CCC(=O)O)C(=O)N[C@@H](CO)C(=O)N[C@@H](C)C(=O)N[C@@H](CCCCN)C(=O)N[C@@H](CCCCN)C(=O)N[C@@H](Cc1c[nH]c2ccccc12)C(=O)N[C@@H](CC(C)C)C(=O)N[C@@H](CCC(=O)O)C(=O)N[C@@H](C)C(=O)N[C@@H](Cc1ccccc1)C(=O)N[C@@H](CC(C)C)C(=O)N[C@@H](C)C(=O)N[C@@H](CCC(=O)O)C(=O)N[C@H](C(=O)N[C@@H](CCSC)C(=O)N[C@@H](CC(N)=O)C(=O)N[C@@H](CO)C(=O)O)[C@@H](C)CC` has a helicity of 46% (circular dichroism; phosphate buffer 10 mM; 1 to 5 µM, pH 7.5, approximate).
`O=C(NC1CCCCC1)Oc1ccc(O)c(-c2ccccc2)c1` — result for “log hydrolysis rate constant”: -3.14 (rat plasma).

Excerpt of the above:
With `COC(=O)C[C@H](NC(=O)[C@H](C)NC(=O)[C@@H](NC(=O)[C@H](CC(=O)OC)NC(=O)[C@@H](NC(=O)c1ccc2ccccc2n1)C(C)C)C(C)C)C(=O)COc1c(F)cccc1F` the fractional shortening was 50 ± 2.11% (echography; rat pups; 1 mg/kg, 1 h).
